Results gathered from unrelated publications.
Each numbered part is a random draw from the data of one study; scales do not carry over between parts. “And” joins repeats or separate records; there may be more than shown.
Chain of UniProt P00519 (whole entry, unmodified, looked up): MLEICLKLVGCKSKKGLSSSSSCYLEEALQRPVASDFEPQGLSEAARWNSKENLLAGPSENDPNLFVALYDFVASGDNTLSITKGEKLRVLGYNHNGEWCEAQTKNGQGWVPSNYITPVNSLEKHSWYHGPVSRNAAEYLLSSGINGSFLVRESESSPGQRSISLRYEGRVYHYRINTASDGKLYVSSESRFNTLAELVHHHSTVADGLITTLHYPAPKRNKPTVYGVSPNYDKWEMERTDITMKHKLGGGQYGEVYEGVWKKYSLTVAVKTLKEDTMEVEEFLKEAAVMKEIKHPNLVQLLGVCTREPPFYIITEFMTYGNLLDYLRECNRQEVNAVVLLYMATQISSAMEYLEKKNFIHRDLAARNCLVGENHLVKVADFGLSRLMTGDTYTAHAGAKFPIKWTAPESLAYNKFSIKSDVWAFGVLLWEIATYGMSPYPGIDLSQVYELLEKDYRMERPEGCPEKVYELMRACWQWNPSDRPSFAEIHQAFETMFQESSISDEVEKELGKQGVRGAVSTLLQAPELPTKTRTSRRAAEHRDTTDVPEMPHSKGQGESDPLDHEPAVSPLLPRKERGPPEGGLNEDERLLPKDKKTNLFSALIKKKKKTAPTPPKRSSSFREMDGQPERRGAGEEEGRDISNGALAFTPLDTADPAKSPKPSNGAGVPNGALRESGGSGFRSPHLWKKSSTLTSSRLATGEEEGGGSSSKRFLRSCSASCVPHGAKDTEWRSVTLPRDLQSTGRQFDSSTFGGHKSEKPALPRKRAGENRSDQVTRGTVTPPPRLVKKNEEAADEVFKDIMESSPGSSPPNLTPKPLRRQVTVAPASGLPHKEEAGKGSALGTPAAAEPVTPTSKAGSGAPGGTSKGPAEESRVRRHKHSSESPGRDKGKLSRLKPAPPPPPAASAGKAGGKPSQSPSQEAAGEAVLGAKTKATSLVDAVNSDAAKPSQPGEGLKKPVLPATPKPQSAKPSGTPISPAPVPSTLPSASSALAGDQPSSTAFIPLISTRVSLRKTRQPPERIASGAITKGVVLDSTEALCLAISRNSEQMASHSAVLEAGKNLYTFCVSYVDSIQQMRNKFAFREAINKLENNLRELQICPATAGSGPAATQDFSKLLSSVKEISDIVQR
Chain of UniProt O14578 (whole entry, looked up): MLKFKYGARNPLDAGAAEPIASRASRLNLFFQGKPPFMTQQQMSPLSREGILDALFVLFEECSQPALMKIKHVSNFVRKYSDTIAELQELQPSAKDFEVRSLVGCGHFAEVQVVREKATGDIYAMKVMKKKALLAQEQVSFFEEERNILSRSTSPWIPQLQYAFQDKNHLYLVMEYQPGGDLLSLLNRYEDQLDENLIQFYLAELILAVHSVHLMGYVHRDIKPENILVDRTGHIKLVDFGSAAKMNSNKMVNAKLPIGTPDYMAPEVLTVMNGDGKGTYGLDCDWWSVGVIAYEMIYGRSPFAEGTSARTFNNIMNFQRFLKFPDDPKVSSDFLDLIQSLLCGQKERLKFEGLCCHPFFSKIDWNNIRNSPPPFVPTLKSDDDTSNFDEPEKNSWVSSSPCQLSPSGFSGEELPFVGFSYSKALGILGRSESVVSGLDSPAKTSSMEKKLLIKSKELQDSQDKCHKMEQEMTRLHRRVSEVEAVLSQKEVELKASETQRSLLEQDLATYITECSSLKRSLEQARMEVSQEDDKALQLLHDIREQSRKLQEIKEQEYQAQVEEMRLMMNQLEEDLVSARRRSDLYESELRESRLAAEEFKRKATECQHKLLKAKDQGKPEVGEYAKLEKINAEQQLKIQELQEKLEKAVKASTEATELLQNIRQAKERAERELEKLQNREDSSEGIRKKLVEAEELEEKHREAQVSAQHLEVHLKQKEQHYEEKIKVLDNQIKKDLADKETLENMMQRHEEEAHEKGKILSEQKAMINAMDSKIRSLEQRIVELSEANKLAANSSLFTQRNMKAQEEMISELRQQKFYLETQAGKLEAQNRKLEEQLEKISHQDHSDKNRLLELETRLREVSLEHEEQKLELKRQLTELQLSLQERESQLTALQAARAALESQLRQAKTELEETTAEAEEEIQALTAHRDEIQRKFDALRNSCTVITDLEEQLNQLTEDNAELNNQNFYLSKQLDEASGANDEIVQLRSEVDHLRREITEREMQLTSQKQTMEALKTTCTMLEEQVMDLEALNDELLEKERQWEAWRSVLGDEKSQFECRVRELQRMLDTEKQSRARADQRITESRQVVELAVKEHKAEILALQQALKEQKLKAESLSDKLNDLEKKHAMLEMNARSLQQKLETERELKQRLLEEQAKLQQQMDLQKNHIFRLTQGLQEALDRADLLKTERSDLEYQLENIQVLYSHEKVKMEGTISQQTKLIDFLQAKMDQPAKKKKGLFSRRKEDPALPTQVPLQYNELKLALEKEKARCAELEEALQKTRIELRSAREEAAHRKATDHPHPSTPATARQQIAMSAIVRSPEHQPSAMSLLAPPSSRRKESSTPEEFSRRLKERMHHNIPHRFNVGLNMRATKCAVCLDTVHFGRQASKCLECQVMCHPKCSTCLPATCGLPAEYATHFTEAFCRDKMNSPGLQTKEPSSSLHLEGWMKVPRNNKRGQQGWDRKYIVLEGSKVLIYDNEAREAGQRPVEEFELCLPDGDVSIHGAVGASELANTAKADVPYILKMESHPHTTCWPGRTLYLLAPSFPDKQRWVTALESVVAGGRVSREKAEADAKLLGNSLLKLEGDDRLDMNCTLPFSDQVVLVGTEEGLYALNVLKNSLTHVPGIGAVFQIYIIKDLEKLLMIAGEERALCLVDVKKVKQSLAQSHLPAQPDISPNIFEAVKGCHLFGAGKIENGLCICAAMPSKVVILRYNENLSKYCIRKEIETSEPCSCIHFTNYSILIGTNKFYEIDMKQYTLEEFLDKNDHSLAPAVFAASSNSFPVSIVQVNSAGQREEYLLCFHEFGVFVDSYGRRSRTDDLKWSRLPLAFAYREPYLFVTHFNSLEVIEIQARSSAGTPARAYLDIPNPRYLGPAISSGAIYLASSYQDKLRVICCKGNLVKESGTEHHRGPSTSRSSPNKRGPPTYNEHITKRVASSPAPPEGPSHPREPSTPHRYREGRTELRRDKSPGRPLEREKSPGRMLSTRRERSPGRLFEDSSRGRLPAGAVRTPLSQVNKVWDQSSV
Chain of UniProt O14936 (whole entry, looked up): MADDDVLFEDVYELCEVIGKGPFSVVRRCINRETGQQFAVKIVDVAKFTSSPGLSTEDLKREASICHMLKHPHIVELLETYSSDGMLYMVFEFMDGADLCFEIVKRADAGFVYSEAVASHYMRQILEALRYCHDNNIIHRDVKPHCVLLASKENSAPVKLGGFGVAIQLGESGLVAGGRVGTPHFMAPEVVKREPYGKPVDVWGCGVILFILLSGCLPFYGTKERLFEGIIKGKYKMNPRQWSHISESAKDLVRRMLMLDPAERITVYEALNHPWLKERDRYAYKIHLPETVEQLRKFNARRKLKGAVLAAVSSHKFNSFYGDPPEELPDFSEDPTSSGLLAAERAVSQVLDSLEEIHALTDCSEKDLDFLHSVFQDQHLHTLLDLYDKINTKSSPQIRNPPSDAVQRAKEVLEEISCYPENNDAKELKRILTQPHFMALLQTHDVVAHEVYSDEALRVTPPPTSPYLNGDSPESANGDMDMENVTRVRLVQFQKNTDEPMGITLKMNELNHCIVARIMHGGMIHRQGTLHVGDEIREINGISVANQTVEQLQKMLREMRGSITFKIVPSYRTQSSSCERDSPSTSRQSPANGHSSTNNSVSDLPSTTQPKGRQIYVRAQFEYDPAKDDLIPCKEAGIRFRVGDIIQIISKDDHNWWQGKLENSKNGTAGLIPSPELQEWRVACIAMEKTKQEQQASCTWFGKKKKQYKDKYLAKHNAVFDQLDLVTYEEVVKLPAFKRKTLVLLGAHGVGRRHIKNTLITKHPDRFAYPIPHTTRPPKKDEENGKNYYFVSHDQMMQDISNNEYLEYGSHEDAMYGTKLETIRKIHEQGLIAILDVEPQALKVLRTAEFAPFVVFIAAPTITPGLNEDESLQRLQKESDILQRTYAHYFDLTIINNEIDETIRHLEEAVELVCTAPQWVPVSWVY

Study 1
Organism: Sarcocystis neurona
Effect on: parasite growth
Concentration: 10 µM
Time: 96 h
Reference: untreated
SMILES | log2 fold change
COCCOC(=O)C1=C(C)NC(C)=C(C(=O)OC(C)C)C1c1cccc([N+](=O)[O-])c1 (stereo not shown) | 0.29
COc1ccc(-c2cc(=O)c3c(OC)c(OC)c(OC)c(OC)c3o2)cc1OC | -0.27
CCC(=O)O[C@]1(C(=O)SCF)[C@H](C)C[C@H]2[C@@H]3C[C@H](F)C4=CC(=O)C=C[C@]4(C)[C@@]3(F)[C@@H](O)C[C@@]21C | -0.12

Study 2
SMILES: C[C@H](c1ccnc(Nc2nc3ccc(-c4cc(N(C)C)ncn4)cc3[nH]2)c1)N1CCN(C(=O)CC(F)(F)F)CC1
Concentration: 0.1 µM
target | effect on | method | remaining binding [%]
CASK (Homo sapiens, UniProt O14936) | cell-free assay | competition with immobilised ligand | 100
PRKCI (Homo sapiens, UniProt P41743) | cell-free assay | competition with immobilised ligand | 100
CAMKK1 (Homo sapiens, UniProt Q8N5S9) | cell-free assay | competition with immobilised ligand | 89
BRAF (Homo sapiens, UniProt P15056, V600E) | cell-free assay | competition with immobilised ligand | 100
MAP3K11 (Homo sapiens, UniProt Q16584) | cell-free assay | competition with immobilised ligand | 92
IRAK3 (Homo sapiens, UniProt Q9Y616) | cell-free assay | competition with immobilised ligand | 76
DYRK1B (Homo sapiens, UniProt Q9Y463) | cell-free assay | competition with immobilised ligand | 84
Tyrosine-protein kinase ABL1, phosphorylated (ABL1, Homo sapiens, UniProt P00519, F317I) | binding | – | 100
ERBB3 (Homo sapiens, UniProt P21860) | cell-free assay | competition with immobilised ligand | 88
STK24 (Homo sapiens, UniProt Q9Y6E0) | cell-free assay | competition with immobilised ligand | 64
CIT (Homo sapiens, UniProt O14578) | cell-free assay | competition with immobilised ligand | 78

Study 3
Cell line: mouse MPNST tumor cells
Method: high-content immunofluorescence imaging
Measured: nuclear SOX9
Concentration: 10 µM
Time: 12 h
Notes: mean of 2 replicates
Reference: DMSO control
Direction: higher = more nuclear SOX9
SMILES | nuclear SOX9 intensity
Cc1cc(OCC(=O)O)cc(C)c1Cc1ccc(O)c(C(C)C)c1 | 105 % of DMSO
C/C(O)=C(\C#N)C(=O)Nc1ccc(C(F)(F)F)cc1 | 104 % of DMSO and 110 % of DMSO
COc1nc(-c2ccc3c(c2)OCO3)n(-c2ccc(NC(=O)CSc3ccccc3)cc2)n1 | 94.4 % of DMSO

Study 4
Target: Max dimerization protein 1, bHLH-zipper, MAX partner unstated (MXD1, Homo sapiens, UniProt Q05195, residues 56-136)
Method: protein-binding microarray
Molecule type: double-stranded DNA, one strand shown
Sample: in vitro
Concentration: not given
Notes: k-mer, scored over probes, only values ≥0.25
Direction: higher = stronger binding
Construct (chain): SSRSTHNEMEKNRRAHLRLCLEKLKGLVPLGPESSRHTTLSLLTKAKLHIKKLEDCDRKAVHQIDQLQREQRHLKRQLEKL
Sequence | E-score
ACCCGCCC | 0.359
CCCACTCC | 0.337
CACGCGGG | 0.442
CGTGCTTA | 0.329
ACCCTCGT | 0.256
AATGGCAC | 0.253
CGCATGAG | 0.34
CCACCACG | 0.32
